Assay results of several laboratories.
Every numbered part comes from another study and shows a few of its results, in no order.
UniProt P11388, sequence (whole entry, looked up): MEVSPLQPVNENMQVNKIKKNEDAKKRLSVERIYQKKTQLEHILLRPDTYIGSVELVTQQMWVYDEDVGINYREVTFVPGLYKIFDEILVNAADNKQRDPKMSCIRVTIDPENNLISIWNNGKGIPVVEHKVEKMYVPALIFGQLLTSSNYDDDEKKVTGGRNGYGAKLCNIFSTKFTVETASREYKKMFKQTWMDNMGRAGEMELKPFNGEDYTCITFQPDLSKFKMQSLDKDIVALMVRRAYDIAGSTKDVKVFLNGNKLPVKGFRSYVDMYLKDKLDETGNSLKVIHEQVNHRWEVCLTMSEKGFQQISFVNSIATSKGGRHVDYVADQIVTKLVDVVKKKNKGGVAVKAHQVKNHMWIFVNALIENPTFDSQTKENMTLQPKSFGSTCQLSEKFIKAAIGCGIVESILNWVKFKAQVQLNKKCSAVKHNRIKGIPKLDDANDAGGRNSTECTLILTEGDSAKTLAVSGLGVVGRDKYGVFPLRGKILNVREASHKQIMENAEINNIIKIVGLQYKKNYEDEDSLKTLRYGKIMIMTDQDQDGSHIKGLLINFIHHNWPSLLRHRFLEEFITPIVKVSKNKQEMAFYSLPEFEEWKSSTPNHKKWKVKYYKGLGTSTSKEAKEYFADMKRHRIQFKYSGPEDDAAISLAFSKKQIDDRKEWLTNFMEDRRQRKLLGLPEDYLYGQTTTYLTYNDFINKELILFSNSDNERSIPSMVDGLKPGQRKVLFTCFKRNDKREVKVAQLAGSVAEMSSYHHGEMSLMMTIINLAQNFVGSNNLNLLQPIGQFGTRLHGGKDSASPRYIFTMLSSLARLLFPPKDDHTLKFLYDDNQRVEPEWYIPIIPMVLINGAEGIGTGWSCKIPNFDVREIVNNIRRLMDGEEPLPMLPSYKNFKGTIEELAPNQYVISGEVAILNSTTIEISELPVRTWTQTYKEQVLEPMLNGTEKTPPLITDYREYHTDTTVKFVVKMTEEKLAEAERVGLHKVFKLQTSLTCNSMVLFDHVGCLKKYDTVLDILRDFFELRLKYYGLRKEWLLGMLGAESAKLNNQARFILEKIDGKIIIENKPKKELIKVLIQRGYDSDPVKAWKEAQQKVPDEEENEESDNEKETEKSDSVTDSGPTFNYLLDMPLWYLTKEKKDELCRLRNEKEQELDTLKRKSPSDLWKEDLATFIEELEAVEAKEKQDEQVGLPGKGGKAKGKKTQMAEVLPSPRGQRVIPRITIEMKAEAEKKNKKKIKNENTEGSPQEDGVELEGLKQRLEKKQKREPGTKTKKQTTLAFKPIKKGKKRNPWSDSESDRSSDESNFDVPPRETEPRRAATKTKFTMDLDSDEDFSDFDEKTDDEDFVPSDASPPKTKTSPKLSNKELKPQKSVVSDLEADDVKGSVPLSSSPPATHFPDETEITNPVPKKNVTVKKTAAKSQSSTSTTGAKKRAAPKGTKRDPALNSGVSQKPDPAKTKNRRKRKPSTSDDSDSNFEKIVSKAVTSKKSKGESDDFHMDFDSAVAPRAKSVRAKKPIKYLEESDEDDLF

Sample 1 — host: healthy volunteers; notes: single ascending dose; reference: placebo
Structure (SMILES): Fc1ccccc1Cc1nc(-c2nc(C(F)(F)F)n[nH]2)cn2ccnc12
dose | word recall correct number
0.3 mg | -0.5
1 mg | -4
30 mg | -0.6
3 mg | -0.8

Further values, each from its own experiment
SMILES | tested on | assay | system | setting | scale | measurement | result
COc1cc([C@@H]2c3cc4c(cc3[C@@H](O[C@@H]3O[C@@H]5CO[C@@H](C)O[C@H]5[C@H](O)[C@H]3O)[C@H]3COC(=O)[C@H]23)OCO4)cc(OC)c1O | DNA topoisomerase 2-alpha (TOP2A, Homo sapiens, UniProt P11388) | DNA cleavage | – | 125 µM, replicate 1 | – | linear DNA | 25.3%
COC(=O)Nc1c(N)nc(-c2nn(Cc3ccccc3F)c3ncc(F)cc23)nc1N | – | – | human, plasma | oral, 2.5 mg, geometric mean, with: mefenamic acid | – | Cmax | 73.6 ng/mL
N#CCC1CCN(c2nc(Nc3ccc(N4CCC(O)CC4)cc3)c3c(=O)[nH]ncc3n2)CC1 | – | vs placebo, Olink multiplex | human, serum | 40 mg, day 29, unit not given | reference: placebo | GIF level difference | 1.28
CC1COc2ccccc2N1C(=O)C(Cl)Cl (centres unmarked) | cytosolic carboxylesterase | substrate depletion | rhesus monkey, female, liver cytosol | 5 µM, pH 7.4, without glutathione | – | intrinsic clearance | 500 µL/min/mg

Some of these lines once more (further values, each from its own experiment):
SMILES | tested on | assay | system | setting | scale | measurement | result
COc1cc([C@@H]2c3cc4c(cc3[C@@H](O[C@@H]3O[C@@H]5CO[C@@H](C)O[C@H]5[C@H](O)[C@H]3O)[C@H]3COC(=O)[C@H]23)OCO4)cc(OC)c1O | DNA topoisomerase 2-alpha (TOP2A, Homo sapiens, UniProt P11388) | DNA cleavage | – | 125 µM, replicate 1 | – | linear DNA | 25.3%
